Experimental data collected from several papers.
Numbers after ± are the reported error.

Under “frequency of responding donors”, `YLQPRTFLL` is recorded as 17 (AIM; peptide, CD8+ T cells from PBMC, human donors; HLA-A*02:01 restricted, unit not given; baseline: positive over tested donors).
Under activity call, `CCC(C)(c1ccc(O)cc1)c1ccc(O)cc1` is recorded as “active” (antagonist, qPCR in vivo, item: Shp and Bsep mRNA; Oryzias latipes; dose not given).
`LPYAK` gave a transition enthalpy of 1.4 kcal/mol (DSC; peptide, 7/3 SOPC/cholesterol bilayers; 10 mol%, pH 7.40, SOPC chain melting transition).
Under “frequency of responding donors”, `GVYYPDKVFR` is recorded as 25% (AIM; peptide, CD8+ T cells from PBMC, human donors; baseline: positive over tested donors).
The transition enthalpy of `LPYGK` is reported as 0.4 kcal/mol (DSC; peptide, 6/4 SOPC/cholesterol bilayers; 15 mol%, pH 7.40, SOPC chain melting transition).
`CS/C(S)=N/CCCC[S+](C)[O-]` (racemic): “mRNA fold change” 0.313 (RT-PCR, item: Pon1; rat, colon; oral gavage, 200 mg/kg, 96 h, dosed for four days; baseline: vehicle).
`insulin human` gave a fold change of 1.21 (item: RYR2 mRNA; EcoHIV-infected mouse, brain; i.p., dose not given; baseline: PBS).
`FVNEFYAYLR` — result for “frequency of responding donors”: 100% (AIM; peptide, CD8+ T cells from PBMC, human donors; baseline: positive over tested donors).
`COCCOCCOCCOc1cccc(C2=N[C@@](C)(C(=O)O)CS2)c1O` gave a uranium excretion of 316 ± 58 µg/kg (rat, bile duct-cannulated, bile and urine; subcutaneous, 150 µmol/kg single dose, 24 h, added: uranium 1 mg/kg s.c.).
`C/C=C1\NC(=O)C(C(C)O)NC(=O)C(CCCN)NC(=O)C(CCO)NC(=O)CNC(=O)C(CCN)NC(=O)C(NC(=O)CC(O)CCCCCCCCCCC)COC(=O)C(C(O)CCl)NC(=O)C(C(O)C(=O)O)NC1=O` (stereo not drawn) gave a maximum fusion of 71 ± 7% (calcein leakage; DOPC/CHOL liposomes; concentration not given, added: 20 wt% PEG-8000).
For `O=C(O)CN(CCN(CC(=O)O)CC(=O)O)CCN(CC(=O)O)CC(=O)O`, the uranium excretion was 212 ± 114 µg/kg (bile duct-cannulated rats, bile and urine; oral, 300 µmol/kg, 24 h, added: uranium 1 mg/kg s.c.).
For `NPIQLSSYSL`, “frequency of responding donors” read 50 (AIM; peptide, CD8+ T cells from PBMC, human donors; HLA-B*07:02 restricted, unit not given; baseline: positive over tested donors).
The uranium excretion of `COc1ccc(C2=N[C@@](C)(C(=O)O)CS2)c(O)c1` is reported as 248 ± 43 µg/kg (bile duct-cannulated rats, bile and urine; subcutaneous, 150 µmol/kg, 24 h, added: uranium 1 mg/kg s.c.).
`CC[C@H](C)[C@H](NC(=O)[C@H](Cc1ccc(O)cc1)NC(=O)[C@H](Cc1c[nH]c2ccccc12)NC(=O)[C@H](CC(C)C)NC(C)=O)C(=O)N[C@@H](CCCCN)C(N)=O` has a transition enthalpy of 0.5 kcal/mol (DSC; SOPC/cholesterol 6/4 bilayers; 15 mol%, pH 7.40).
`KPFERDISTEI`: “frequency of responding donors” 40 (AIM; peptide, CD8+ T cells from PBMC, human donors; HLA-B*07:02 restricted, unit not given; baseline: positive over tested donors).
`COc1ccc(C2=N[C@@H](C(=O)O)CS2)c(O)c1` gave a uranium excretion of 238 ± 40 µg/kg (rat, bile duct-cannulated, bile and urine; subcutaneous, 150 µmol/kg single dose, 24 h, added: uranium 1 mg/kg s.c.).
`LEAPFLYLY` — result for “frequency of responding donors”: 50% (AIM; peptide, CD8+ T cells from PBMC, human donors; baseline: positive over tested donors).
`COCCOCCOCCOc1ccc(C2=N[C@@](C)(C(=O)O)CS2)c(O)c1` gave a uranium excretion of 482 ± 205 µg/kg (rat, bile duct-cannulated, bile and urine; subcutaneous, 150 µmol/kg single dose, 24 h, added: uranium 1 mg/kg s.c.).
